Experimental data of several laboratories.
Compare with care: the assays were run in different laboratories.
Sequence of UniProt P15735 (whole entry, looked up): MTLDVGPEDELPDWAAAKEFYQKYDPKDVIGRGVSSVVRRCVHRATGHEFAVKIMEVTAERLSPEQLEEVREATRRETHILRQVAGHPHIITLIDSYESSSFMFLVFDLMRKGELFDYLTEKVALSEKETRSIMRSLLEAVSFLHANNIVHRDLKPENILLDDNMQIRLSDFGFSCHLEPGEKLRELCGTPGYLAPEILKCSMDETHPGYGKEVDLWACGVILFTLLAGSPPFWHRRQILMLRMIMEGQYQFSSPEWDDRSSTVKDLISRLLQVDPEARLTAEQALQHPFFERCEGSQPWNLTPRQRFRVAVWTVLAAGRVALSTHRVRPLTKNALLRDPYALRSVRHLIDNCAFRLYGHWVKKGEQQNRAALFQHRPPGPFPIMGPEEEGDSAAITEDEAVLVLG
Sequence of UniProt Q9NWZ3 (whole entry, looked up): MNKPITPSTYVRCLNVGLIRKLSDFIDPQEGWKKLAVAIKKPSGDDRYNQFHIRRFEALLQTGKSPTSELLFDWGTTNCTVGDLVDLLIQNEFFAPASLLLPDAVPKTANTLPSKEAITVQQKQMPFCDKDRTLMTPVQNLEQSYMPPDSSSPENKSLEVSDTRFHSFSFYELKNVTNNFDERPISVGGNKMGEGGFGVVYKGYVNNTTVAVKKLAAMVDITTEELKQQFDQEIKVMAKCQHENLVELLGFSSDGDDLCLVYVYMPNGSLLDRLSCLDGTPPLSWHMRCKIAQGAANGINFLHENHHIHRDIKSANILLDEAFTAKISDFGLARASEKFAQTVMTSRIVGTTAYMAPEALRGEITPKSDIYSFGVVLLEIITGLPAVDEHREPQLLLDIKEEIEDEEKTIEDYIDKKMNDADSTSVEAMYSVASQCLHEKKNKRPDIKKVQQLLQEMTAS
Sequence of UniProt Q15059 (whole entry, looked up): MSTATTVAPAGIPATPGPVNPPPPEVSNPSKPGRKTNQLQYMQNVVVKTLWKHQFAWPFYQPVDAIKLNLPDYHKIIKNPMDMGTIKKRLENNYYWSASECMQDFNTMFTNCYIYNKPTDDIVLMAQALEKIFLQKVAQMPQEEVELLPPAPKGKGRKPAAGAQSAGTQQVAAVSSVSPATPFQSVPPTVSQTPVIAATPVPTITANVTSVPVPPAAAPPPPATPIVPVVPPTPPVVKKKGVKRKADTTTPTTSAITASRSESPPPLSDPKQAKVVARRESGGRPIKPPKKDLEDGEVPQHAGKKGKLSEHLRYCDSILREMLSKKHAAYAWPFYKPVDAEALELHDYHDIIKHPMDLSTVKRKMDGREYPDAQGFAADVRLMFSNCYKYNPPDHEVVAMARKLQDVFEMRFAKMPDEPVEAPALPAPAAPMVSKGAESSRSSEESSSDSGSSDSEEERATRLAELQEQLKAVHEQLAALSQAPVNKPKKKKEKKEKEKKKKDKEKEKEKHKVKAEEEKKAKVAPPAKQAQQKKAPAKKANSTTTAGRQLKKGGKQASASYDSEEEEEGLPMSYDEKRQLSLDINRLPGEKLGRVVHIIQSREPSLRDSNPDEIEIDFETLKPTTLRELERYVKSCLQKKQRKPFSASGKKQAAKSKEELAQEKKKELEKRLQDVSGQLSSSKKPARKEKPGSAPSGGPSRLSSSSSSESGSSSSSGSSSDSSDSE
Sequence of UniProt Q15303 (whole entry, looked up): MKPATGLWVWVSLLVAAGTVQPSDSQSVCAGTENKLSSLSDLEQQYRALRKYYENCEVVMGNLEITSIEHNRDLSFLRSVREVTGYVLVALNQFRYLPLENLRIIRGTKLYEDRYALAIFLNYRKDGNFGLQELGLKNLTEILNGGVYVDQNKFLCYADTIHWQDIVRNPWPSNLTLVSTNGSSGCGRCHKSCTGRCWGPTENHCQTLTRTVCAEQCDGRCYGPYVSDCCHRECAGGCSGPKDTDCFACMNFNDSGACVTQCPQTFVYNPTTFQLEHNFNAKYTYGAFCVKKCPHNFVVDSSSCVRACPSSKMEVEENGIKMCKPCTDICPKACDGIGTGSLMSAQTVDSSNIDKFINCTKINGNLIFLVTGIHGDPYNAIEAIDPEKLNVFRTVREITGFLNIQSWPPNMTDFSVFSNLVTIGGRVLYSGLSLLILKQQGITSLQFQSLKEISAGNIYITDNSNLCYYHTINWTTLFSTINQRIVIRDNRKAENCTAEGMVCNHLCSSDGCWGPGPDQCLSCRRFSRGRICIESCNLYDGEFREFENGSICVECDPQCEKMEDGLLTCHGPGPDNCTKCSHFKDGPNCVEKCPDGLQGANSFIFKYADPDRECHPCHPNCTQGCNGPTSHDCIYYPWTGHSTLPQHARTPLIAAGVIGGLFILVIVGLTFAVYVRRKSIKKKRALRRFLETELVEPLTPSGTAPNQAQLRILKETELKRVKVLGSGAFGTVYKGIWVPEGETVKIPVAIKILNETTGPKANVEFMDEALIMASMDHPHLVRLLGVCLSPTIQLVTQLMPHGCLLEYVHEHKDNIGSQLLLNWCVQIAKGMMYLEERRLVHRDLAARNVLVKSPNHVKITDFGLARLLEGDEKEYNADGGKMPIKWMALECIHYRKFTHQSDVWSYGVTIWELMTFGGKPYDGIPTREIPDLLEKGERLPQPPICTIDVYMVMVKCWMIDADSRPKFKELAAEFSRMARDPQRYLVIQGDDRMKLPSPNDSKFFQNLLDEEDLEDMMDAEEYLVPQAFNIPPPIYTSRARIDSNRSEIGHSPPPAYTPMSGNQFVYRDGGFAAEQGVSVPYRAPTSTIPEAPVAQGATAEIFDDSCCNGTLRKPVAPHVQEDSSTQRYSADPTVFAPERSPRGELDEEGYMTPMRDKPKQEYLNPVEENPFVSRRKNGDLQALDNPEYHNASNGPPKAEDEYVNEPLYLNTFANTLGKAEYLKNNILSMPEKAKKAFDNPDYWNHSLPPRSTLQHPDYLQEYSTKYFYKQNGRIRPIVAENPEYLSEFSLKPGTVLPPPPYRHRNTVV
Sequence of UniProt Q07912 (whole entry, looked up): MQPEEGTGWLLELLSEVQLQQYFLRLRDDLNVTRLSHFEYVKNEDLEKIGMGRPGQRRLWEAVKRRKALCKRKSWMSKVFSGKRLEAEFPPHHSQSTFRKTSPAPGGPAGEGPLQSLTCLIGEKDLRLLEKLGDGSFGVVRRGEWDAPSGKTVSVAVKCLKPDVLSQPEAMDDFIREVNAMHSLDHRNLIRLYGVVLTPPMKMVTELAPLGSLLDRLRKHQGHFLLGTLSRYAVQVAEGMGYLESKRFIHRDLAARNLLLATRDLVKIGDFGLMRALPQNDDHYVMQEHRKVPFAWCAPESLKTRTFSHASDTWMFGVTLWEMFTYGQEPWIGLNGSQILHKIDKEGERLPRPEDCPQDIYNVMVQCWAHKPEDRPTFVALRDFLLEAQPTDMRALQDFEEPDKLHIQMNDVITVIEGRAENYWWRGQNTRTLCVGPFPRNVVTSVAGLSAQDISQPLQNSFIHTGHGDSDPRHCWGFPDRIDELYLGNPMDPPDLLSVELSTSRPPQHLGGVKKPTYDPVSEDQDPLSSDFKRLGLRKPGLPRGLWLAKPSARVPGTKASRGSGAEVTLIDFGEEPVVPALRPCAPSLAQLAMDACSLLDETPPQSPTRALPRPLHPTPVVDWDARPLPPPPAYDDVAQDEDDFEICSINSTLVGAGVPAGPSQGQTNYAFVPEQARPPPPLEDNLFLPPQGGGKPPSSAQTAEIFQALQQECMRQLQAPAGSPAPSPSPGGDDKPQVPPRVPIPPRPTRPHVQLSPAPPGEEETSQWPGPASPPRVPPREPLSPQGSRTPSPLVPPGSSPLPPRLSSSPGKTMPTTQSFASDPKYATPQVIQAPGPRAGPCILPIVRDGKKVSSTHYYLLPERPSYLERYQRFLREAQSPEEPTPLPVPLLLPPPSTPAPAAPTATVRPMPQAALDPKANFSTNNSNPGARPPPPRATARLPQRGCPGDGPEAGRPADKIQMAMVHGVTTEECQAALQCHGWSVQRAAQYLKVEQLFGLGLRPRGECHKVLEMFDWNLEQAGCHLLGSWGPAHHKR
Sequence of UniProt P10721 (whole entry, unmodified, looked up): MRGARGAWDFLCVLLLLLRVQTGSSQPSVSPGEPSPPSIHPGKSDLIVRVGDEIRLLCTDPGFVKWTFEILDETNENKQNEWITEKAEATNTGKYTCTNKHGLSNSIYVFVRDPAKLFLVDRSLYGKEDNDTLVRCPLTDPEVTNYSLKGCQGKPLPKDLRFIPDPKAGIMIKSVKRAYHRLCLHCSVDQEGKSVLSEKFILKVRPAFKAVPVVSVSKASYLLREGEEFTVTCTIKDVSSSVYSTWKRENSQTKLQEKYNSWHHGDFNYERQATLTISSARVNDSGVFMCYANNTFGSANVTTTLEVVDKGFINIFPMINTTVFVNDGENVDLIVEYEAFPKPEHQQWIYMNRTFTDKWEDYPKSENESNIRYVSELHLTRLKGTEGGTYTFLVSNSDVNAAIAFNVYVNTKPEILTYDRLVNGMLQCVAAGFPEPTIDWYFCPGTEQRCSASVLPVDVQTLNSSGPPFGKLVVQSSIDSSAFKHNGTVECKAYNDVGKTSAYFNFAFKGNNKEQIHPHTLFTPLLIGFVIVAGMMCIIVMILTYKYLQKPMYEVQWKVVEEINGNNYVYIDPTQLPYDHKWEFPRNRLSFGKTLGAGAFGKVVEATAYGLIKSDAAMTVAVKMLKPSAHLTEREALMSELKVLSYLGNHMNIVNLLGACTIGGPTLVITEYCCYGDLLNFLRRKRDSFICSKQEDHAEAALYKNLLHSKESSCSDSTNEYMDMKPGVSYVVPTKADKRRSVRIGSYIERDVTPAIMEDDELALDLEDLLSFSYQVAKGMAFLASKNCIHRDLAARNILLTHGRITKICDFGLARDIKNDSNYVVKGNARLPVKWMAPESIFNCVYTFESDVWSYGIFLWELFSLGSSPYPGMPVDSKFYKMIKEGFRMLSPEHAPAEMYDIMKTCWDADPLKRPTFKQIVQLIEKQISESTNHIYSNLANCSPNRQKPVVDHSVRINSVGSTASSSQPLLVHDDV

Compound | target or system | test | system | conditions | measurement | result
C=CC(=O)N1CCC(COCC(=O)N2CCN(c3nc(-c4cnc(N)nc4C(F)F)nc(N4CCOC[C@@H]4C)n3)CC2)CC1 | STK11 (Homo sapiens, UniProt Q15831) | binding, competition with immobilised ligand | – | 1 µM | remaining binding | 77%
Cc1cc(NC(=O)c2cccc(NC(=O)/C=C/CN(C)C)c2)ccc1Nc1nccc(-c2cccnc2)n1 | TNK2 (Homo sapiens, UniProt Q07912) | binding, competition with immobilised ligand | – | 1 µM | remaining binding | 100%
COc1cc(-c2cncc3c2CN(C)Cc2cc(N4CCNCC4)ccc2-3)cc(OC)c1OC | HIPK3 (Homo sapiens, UniProt Q9H422) | enzyme activity, inhibitor | – | 1 µM | remaining activity | 103%
C[C@]1(O)CCCN(c2nc(Nc3ccc(S(=O)(=O)N[C@H]4CC[C@H](CN5CCN(c6ccc(C7CCC(=O)NC7=O)cc6F)CC5)CC4)cc3F)ncc2C(F)(F)F)C1 (stereo partly shown) | CDK8 (Homo sapiens, UniProt P49336) | binding, competition with immobilised ligand | – | 1 µM | remaining binding | 96%
CN(C)c1nccc(-c2cnc3ncccn23)n1 | RIOK3 (Homo sapiens, UniProt O14730) | binding | – | 1 µM | remaining binding | 100%
Cc1cc([C@@H](C)Nc2ccccc2C(=O)O)c2nc(N3CCC(F)(F)CC3)c(C#N)c(=O)n2c1 | KIT (Homo sapiens, UniProt P10721, T670I/V559D) | binding, competition with immobilised ligand | – | 10 µM | remaining binding | 100%
Nc1ccn([C@@H]2O[C@H](CO)[C@@H](O)C2(F)F)c(=O)n1 | MDA-MB-231 | cell growth or viability, MTT | – | 2.5 µg/mL, 24 h | viability | 75.1%
FC(F)(F)Oc1cccc(-c2cnc3ccc(-c4ccncc4)nn23)c1 | ERBB4 (Homo sapiens, UniProt Q15303) | cell-free assay, competition with immobilised ligand | – | 5 µM | remaining binding | 100%
NS(=O)(=O)c1ccc(Nc2nc(-c3ccc(F)cc3)c3ccccc3n2)cc1 | Bromodomain-containing protein 3, BD2 (BRD3, Homo sapiens, UniProt Q15059) | binding, competition with immobilised ligand | – | 1 µM | remaining binding | 3%
COc1cccc(-c2n[nH]c(SCc3ccccn3)n2)c1OC | – | – | female Sprague-Dawley rat, plasma | oral, 30 mg/kg, 8 h, single dose | concentration | 1150 ng/mL
CCCCC(=O)Nc1ccc(-c2ccc3ncn(CCC)c(=O)c3c2)cn1 | PHKG2 (Homo sapiens, UniProt P15735) | binding, competition with immobilised ligand | – | 0.5 µM | remaining binding | 100%
C1=C/COCc2cc(ccc2OCCN2CCCC2)Nc2nccc(n2)-c2cccc(c2)COC/1 | EGFR (Homo sapiens, UniProt P00533, del747-750/T751S) | binding | – | 0.1 µM | remaining binding | 88%
CNc1ncc2c(/C=C/C(=O)N3CCC(OC)CC3)nn(Cc3cccc(C(F)(F)F)c3)c2n1 | IRAK4 (Homo sapiens, UniProt Q9NWZ3) | enzyme activity, inhibitor, radiometric | – | 1 µM | remaining activity | 97%

For quick reference, copied from above:
Compound | target or system | test | system | conditions | measurement | result
Cc1cc([C@@H](C)Nc2ccccc2C(=O)O)c2nc(N3CCC(F)(F)CC3)c(C#N)c(=O)n2c1 | KIT (Homo sapiens, UniProt P10721, T670I/V559D) | binding, competition with immobilised ligand | – | 10 µM | remaining binding | 100%
